Measurements from different studies.
Numbered parts are unrelated; each lists some results of a single study. Changes are numbered by the printed parent chain.

Block 1
Target: Interferon regulatory factor 7, full length, phosphomimetic (IRF7, Homo sapiens, UniProt Q92985, residues 1-503, S471D/S472D/S475D/S476D/S477D/S483D/S484D/S487D)
Method: protein-binding microarray
Form: double-stranded DNA, one strand shown
Sample: in vitro
Concentration: 2200 nM top
Setting: 60-bp whole probe
Together with: salmon DNA 0.4 mg/ml
Relative to: random background probes
Direction: higher = stronger binding
All sequences stand within: GCCTAGCAC … GTCTTGATTCGCTTGACGCTGCTG
Residues (chain): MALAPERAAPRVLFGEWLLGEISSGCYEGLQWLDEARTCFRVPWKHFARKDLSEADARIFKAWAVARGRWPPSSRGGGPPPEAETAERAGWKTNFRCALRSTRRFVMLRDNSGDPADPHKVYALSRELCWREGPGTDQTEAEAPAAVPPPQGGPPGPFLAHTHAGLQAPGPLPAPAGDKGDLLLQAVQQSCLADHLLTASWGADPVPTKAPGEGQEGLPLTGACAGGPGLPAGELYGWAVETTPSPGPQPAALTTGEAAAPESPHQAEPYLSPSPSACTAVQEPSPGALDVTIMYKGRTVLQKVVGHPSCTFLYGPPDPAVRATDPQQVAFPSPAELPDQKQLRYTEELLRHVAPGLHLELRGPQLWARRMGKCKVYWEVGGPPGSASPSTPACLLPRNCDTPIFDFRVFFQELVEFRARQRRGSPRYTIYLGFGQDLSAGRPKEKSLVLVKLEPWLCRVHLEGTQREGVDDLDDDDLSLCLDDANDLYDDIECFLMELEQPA
| Sequence | fitted relative affinity [z-score] |
| --- | --- |
| GACGGTTTCCTTCTCCAGACGTGCTAG | 2.89 |
| GACGATACCGGGACTGGAGACGTGCTA | -0.293 |
| TTAGCTTTCGGGTTTCGGTTAGTGCTA | 11.2 |
| TCAATTTGGCATATCTAACTGTGCTAG | 0.703 |
| TTAGAACTGGGGTATCGATCAGTGCTA | -0.134 |
| GTGACAGTTTTATTTTAGTTGGTGCTA | 1.04 |
| TCAGTTATTAAATTTTCAACTGTGCTA | 0.00519 |
| GACGAACTGGGGTTTCGATACGTGCTA | 2.05 |
| GACGGACTGGGGTATCGGGCCGTGCTA | -1.09 |
| GACGGTATTGGTCTCGGGACGTGCTAG | 0.0225 |
| TCACCTTTCCTTTGCCTACTGTGCTAG | 3.35 |
| TTAGGTTTCGGTTTAGGTTAGTGCTAG | 13.3 |
| TTTTCACTTTCTTTAACTCAGTGCTAG | 5.44 |
| TCAAATTTTCATTTTCCACTGTGCTAG | 4.3 |
| GACGAACTGAGTCTCGTGACGTGCTAG | 0.203 |
| GACGATATCGGGACTGGAGAAGTGCTA | -0.303 |
| TTAGGTGTCCTTATCCTTTAGTGCTAG | 0.786 |

Block 2
Target: RNA binding protein fox-1 homolog 2, RRM domain, GST-SBP tag (RBFOX2, Homo sapiens, UniProt O43251-10, residues 100-194)
Method: RNA Bind-n-Seq
Form: RNA
Sample: in vitro
Concentration: 365 nM
Setting: natural RNA segment, single round, ends assumed
Relative to: no-protein control
Direction: higher = stronger binding
All sequences stand within: GGGAGUUCUACAGUCCGACGAUC … UGGAAUUCUCGGGUGCCAA
Construct (chain): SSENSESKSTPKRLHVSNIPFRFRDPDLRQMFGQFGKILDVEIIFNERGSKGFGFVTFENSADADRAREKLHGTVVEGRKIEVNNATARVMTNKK
| Sequence | RBNS enrichment (R) |
| --- | --- |
| AUGAGGAAGUUUUAAAAGACCAUGUUCCUAAGCUUCCAAGAAGGUUUUGGAUACUAGAAGUAUUAAUCUAUGGCUUUUCUCCCAGUAAAACCAUAGGCCUGAAGUUCACA | 0.252 |
| AAGAUAGUGUAACUUGCUUAAAUUUCUUAUGUGACAUUAACAAAUAAAAAAGCUCUUUUAAUAUUGAUAUACUGUCCUUUUUAACGCUUUAAAAACAGAUUUUGAGGGGA | 0.38 |
| CAAGGGUUGUCACUUUCCUAGAGGGUGUGAGCGUUCUGCCAGCCACAACCAUGUCUCAGACUCAAGAGCUCCGUCAACAGAGCCUCGGAACUGGCCACUCAAUACAGUCU | 0.48 |
| CUCCCCACCACCCUCCGCCAUCAGCCUGCCUGGGCCAGCCUGCCUCCUGGCCUCAGGAUCUCCCUGGGGCAGGAAGUGGGUGGACUUGGAGGAGGAACGGCAAGGGCCGG | 0.3 |
| UCAGAUUUAGAAAUGUUUUUAAGAGCUAUGUGAAAACAGACAAUAUUAGUUUAGGUCGGGAACUGAGAUAUUGUAAUCAAAUAGUUAACAUCAGGAAGUUAAUUUGGCUG | 1.23 |
| GAUGGUUGUACAGUUUGAUUGGAGGCAUGGGGUGUAUGUGAAGUUGGAAGCCUUUGAUAGUUACUGCCUACCUUCAAUGGUGAUGAUAACAUUGUGACUCUUACUCGUUU | 0.894 |
| GCACGCCGCCUCCUGCCUCCCUGAGCGCUGCUGCAUCCUGCACGCCCUGGAACCCAGGAGCGCCCCAGCAACCCUGACUCCCUGCCAGCACGUCCAAGGCUGCUUACCCC | 8.52 |
| GAGCGCAUGUCCCAGCCCCUGGUGGCCAGGCUCCCCUUGCUGAGCCGCUGCCACUUCACCCUGUGGGAAGUGGCCCCAGCCAUCUCCUCUAGACCAAGGCAGGCAGCCCC | 5.95 |
| CCACAGGCCUGAUUUUUAUAAAAAACUACCAAUGCUGAUCAAUAAAGUGGGUUUUUUUUAUAGCUUGGGUGUGGGCUGUGUUUGGGGGUGUAUAUAACACCUGUCCUGAG | 0.286 |
| CUGUUGCUGUCUCUUGCUGGUGAAGCAAUACCAGCAGUUCCUGUAAUACCACAAUAUCGUUCCAUGCAUAUAUAACAUAUUAAUACUUGAUUUUGCUGAGCUGCAAAGGU | 1.06 |
| CCUGAGUCAGUCACAUCUGGCAGCUGGCAGCAAGCUCUUCAUCCCUCCACAGUGAGGAAGCUGGCAGCGAGCAGGUAGACCUGGAGACUGCACGGCUGCUGAUUGGUCUU | 0.472 |
| CCGGUCGGGGCCAUCCCUCCACACUCUGCAUCCUACCCCACCUACCCAACACACUUUUCCACCUGGGAGCCUGUGCCCUCAGACCGCCCCGCACCAGAGCCACGGGCUGU | 2.34 |

Block 3
Target: CCND1, cyclin fold, Cln2 fusion (human)
Method: yeast growth competition, sequencing
Sample: yeast
Setting: weak parent motif
Relative to: not given
Direction: higher = stronger binding
Starting sequence: CDC25A docking peptide (human); PPHRRRLLFACSP
| Variant | normalised enrichment score |
| --- | --- |
| C11H | 0.0616 |
| F9N | -0.0301 |
| P2A | 0.156 |
| L8S | -0.0398 |
| R4N | 0.462 |
| C11S | 0.0647 |
| L8M | -0.235 |
| H3V | 0.139 |
| A10Y | -0.272 |
| F9T | 0.0328 |
| R6S | -0.158 |
| P13K | -0.174 |
| F9G | 0.349 |
| F9E | 0.108 |
| H3M | 0.296 |
| H3F | 0.546 |

Single results of other studies
| Molecule | target | test | test system | setting | scale | measurement | value |
| --- | --- | --- | --- | --- | --- | --- | --- |
| PhoQ, residues 284 288 289 292 302 303 SMYGEC | PhoP, residues 12 14 15 18 19 VQALL (Escherichia coli, UniProt P23836) | Sort-seq, item: YFP reporter | E. coli | PhoQ-PhoP variant library, together with: 10 µM Mg2+ | relative to: high Mg2+ state, higher = stronger signaling | fold induction | 13.6 |

Excerpt of the above (block 1):
| Sequence | fitted relative affinity [z-score] |
| --- | --- |
| TTAGGTTTCGGTTTAGGTTAGTGCTAG | 13.3 |
| TTTTCACTTTCTTTAACTCAGTGCTAG | 5.44 |
| TCAAATTTTCATTTTCCACTGTGCTAG | 4.3 |
| GACGAACTGAGTCTCGTGACGTGCTAG | 0.203 |
| GACGATATCGGGACTGGAGAAGTGCTA | -0.303 |
| TTAGGTGTCCTTATCCTTTAGTGCTAG | 0.786 |
